# Experimental data of several laboratories.
# Each numbered part is a random draw from the data of one study; scales do not carry over between parts. Changes are numbered by the printed parent chain.

# Study 1 — target: CCNA1, cyclin fold, Cln2 fusion (human); technique: yeast growth competition, sequencing; sample: yeast; notes: weak parent motif; relative to: not given; direction: higher = stronger binding
# Starting sequence: SAMHD1 docking peptide (human); ASKSRVQLFKDDP; partner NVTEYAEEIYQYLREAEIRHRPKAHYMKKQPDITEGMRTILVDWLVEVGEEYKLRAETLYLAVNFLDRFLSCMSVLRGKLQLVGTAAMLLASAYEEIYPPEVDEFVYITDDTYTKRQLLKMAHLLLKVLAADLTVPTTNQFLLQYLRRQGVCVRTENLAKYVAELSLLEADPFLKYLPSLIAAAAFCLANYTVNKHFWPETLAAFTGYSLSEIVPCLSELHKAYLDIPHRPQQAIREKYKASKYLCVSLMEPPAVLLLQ
Substitution,normalised enrichment score
ASKSRVNLFKDDP [Q7N],0.134
ASKSRVQSFKDDP [L8S],0.32
ASKSRVQGFKDDP [L8G],0.392
ASKSRVQLFLDDP [K10L],0.343
ASKSRVQLFYDDP [K10Y],-0.103
ASKSRVQLFKDWP [D12W],-0.3
ASKSRVQLWKDDP [F9W],0.367
ASKSRVQLFNDDP [K10N],0.25
ASKPRVQLFKDDP [S4P],0.171
ASISRVQLFKDDP [K3I],-0.00777
ASKRRVQLFKDDP [S4R],0.697
ASKSRVHLFKDDP [Q7H],0.58
ASKSRVQRFKDDP [L8R],0.263
ASKSRVQLFKLDP [D11L],-0.25
ASWSRVQLFKDDP [K3W],0.149
ASKSRVQLFKWDP [D11W],0.0918
ASKSRVQNFKDDP [L8N],0.268
ASKSFVQLFKDDP [R5F],-0.183
ASKSRVQLFKCDP [D11C],-0.0413
ASKSRVQTFKDDP [L8T],0.336
ASKSRVFLFKDDP [Q7F],-0.0443
ASKHRVQLFKDDP [S4H],0.588
ASKSRVQLPKDDP [F9P],0.306
ARKSRVQLFKDDP [S2R],-0.0693
ASKSRVQLFKDRP [D12R],0.013

# Study 2 — technique: protein binding microarray; molecule type: double-stranded DNA, one strand shown; sample: in vitro; concentration: not given; relative to: not given; direction: higher = stronger binding
# Target: Histone acetyltransferase KAT6A, both winged helices, GST fusion (KAT6A, Homo sapiens, UniProt Q92794, residues 1-181)
# Notes: 8-mer, flanks averaged, mean of 2 arrays, mostly near background
# Construct (chain): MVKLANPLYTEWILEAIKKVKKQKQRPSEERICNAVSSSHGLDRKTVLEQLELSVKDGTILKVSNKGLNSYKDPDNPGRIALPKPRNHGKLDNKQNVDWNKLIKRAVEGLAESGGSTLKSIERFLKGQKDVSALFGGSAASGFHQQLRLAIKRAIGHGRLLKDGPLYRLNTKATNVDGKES
Sequence,E-score
ATTGAACA,-0.00068
GAGTGTTA,-0.07
CCTGATCG,-0.0684
GCACTCTA,-0.0451
ACCTATTG,-0.187
AAATCACG,0.109
AAGACAGC,-0.025
GGGTGGAC,-0.0506
CACGCACA,0.158
GAGGTCGC,0.117
CGAATAAC,0.0344
CTAATCGA,-0.0323
CGTAGACC,0.0903
ACGTAGTC,-0.128
GGGTTAGA,-0.118

# Study 3 — technique: RNA Bind-n-Seq; molecule type: RNA; sample: in vitro; concentration: not given; relative to: input RNA pool; direction: higher = stronger binding
# Target: RING finger protein unkempt homolog, zinc fingers 1-6, GST-SBP tag (UNK, Homo sapiens, UniProt Q9C0B0, residues 30-357)
# Chain of UniProt Q9C0B0 (30-357, looked up): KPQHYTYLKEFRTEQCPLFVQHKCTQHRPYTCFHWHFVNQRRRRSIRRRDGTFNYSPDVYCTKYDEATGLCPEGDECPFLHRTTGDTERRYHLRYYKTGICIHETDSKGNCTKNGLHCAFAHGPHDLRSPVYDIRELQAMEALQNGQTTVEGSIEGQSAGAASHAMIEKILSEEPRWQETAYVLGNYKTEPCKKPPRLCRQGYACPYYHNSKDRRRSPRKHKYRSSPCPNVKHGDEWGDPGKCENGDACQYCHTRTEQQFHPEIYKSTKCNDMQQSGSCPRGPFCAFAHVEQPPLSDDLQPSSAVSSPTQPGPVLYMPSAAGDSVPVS
# Notes: RNA with constant flanks, human and mouse sites, ends assumed
# Shared flanks, not repeated: GGGAGUUCUACAGUCCGACGAUC … CAACAGAGGAUUGAGCAUCA
Sequence,bound/input enrichment [ratio]
CGGCAUUCUACACCUUUACAUUUGGCAGCUGGUUAUAAUAACUUGGAAGUUGCUGAGUAUUUAUUGCAACAUGGAGCUGAUGUGAAUGCCCAGGACAAAGGAGGACUCAUUCCUUUACAU,0.152
AUUGAAAAUUCACAGAUAAUUCAGAAAGAGGACUUAUGCAUUUCUCCAGGAAAGCUUGUCUGGGUUCUAUACUGUGAUCUCAUUUGCCUCGACUACGAUGGAAACAUUUUGGAUGCCUGC,0.197
CAACCCCAACUCCUGACAUAGCUGUCGUCCUGAGUUUGACACAGCCCAGGCUGGGUGUCCUUUGGGAUCUGAUUUUGACCAAGAUGAAAGAAGAUGCCAGGCUCCCUCCUAGAGUGCCAC,0.204
GAGAAGUCGACUCAUGAGAAAAUCCUAGAGAAGGCAAUGAAGAAGAAGGGGGGAAGUAAUUGUCUCGAAAUGAAAAAAGAAACAGAAAUCAAAAUUCAGACGCUGACAUCAGAUCACAAA,0.436
CGGGUCGACACAAUAUUGGAGUUUUCGCAGAACAUGAACACGAAAUACUAUGGACUACAGAUUUUGGAAAAUGUGAUCAAAACAAGGUGGAAGAUCCUUCCAAGGAACCAGUGUGAAGGA,0.252
AAAAUUUUAGAAGAGUUUAGGAAAACACAGCAGACAUCUCCUGAUAAAGUGGAUUAUGAAUAUAGUGAACUCCUCUUAUAUCAGAAUCAAGUUCUUCGGGAAGCAGGUCUUUAUAGAGAA,6.26
AAAAAACAACAGUUUUGUUGGCAUGUGAAGCUCCAGUUUCCUCAAAGUCAAGCUGAGUACAUAGAAAAAAGAGUACCAGAUGAUAAAACUAUUAAUGAAAUCCUAAAACCUUACAUUGAU,0.188
AACAAUGAAACCAACAACAAACAUUUUUAAAAUUAAAAUGGAUAAUUUGUAAAUAGUUUUUAGCUUUUAAAAUUUAAAGUGUUUUUGAGUGUGAAAAGUUGAGUAAAACUAUUUGCAACU,2.02
AAAGAUCUACUGAGGCAAGGCAGCAAAUUUAGAAGAAAUGUAUCAACACUAUUAAUAGAGUUAGGAUUCCAAAUUAAAAAAAAAACUAAAAGAUUGUAUAUCAACAAAGCCAAUAUCUGG,17.7
AUCCAAUACUGGGGAUAAAUCCUAGAGAAACUCAUACAUGUACACCAGGAGAUGUGUACAAGAAUAUUCAUAGCAACCCUAUUCACAAAAGCAAAAGCCUAGAAAUAACCCAGAUGCCCA,4.82
GCUCACAUCGUAAAUGACUUUCUCUCCGAAACGCUAAAUAUUCUUUCCCGCAGGAGCUCAUAUCCUUAUUUUCCAUGACAGAUCUUAACGACAAUAUAUGCAAAAGAUAUAUAAAGAUGA,0.316

# Study 4 — technique: aptamer microarray, sandwich; molecule type: DNA with 2'F-ANA; sample: in vitro; concentration: 200 nM; together with: Cy3 exosite-II aptamer, 400 nM; direction: higher = stronger binding; sequence: GGTTGGTGTGGTTGG
# Target: Prothrombin, mature alpha-thrombin (F2, Homo sapiens, UniProt P00734)
# Notes: whole 15-mer aptamer, many near background
Modification,mean fluorescence intensity [a.u.]
2'F-ANA at 1 2 4 6 8 9 10 11 12 13 14,47.2
2'F-ANA at 1 2 3 4 9 10 11 12 13,65.7
2'F-ANA at 3 7 8 9 10 11 14,501
2'F-ANA at 1 3 5 6 7 9 12 13 14,61.1
2'F-ANA at 2 3 4 6 7 8 9 10 12 13 14,154
2'F-ANA at 4 5 6 7 8 9 12 13,89.6
2'F-ANA at 3 4 5 6 7 9 11 13,73.8
2'F-ANA at 2 3 10 11 12 13 14 15,278
2'F-ANA at 2 4 8 12 13 14,137
2'F-ANA at 1 3 4 5 6 8 9 13 14,49.9
2'F-ANA at 2 5 6 8 9 10 11 14 15,47.8
2'F-ANA at 1 2 3 4 5 6 7 8 10 11 13 14 15,45.8

# Repeated from above (study 1):
Substitution,normalised enrichment score
ASKSRVQTFKDDP [L8T],0.336
ASKSRVQRFKDDP [L8R],0.263
ASKSRVQLFKDRP [D12R],0.013
ASKSRVQLFYDDP [K10Y],-0.103
